Assay results of several laboratories.
Each numbered part is a random draw from the data of one study; scales do not carry over between parts.

Sample 1 — technique: protein binding microarray; molecule type: double-stranded DNA, one strand shown; sample: in vitro; tested at: not given; baseline: not given; direction: higher = stronger binding
Target: Histone acetyltransferase KAT6A, both winged helices, GST fusion (KAT6A, Homo sapiens, UniProt Q92794, residues 1-181)
Setting: 8-mer, flanks averaged, mean of 2 arrays, mostly near background
Construct (chain): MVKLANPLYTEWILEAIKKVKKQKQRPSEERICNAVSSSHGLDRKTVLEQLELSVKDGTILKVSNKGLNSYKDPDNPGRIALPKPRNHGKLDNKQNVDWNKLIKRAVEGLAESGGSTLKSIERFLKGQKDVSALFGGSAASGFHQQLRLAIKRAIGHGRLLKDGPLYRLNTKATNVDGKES
| Sequence | E-score |
| --- | --- |
| AACAAGGG | -0.108 |
| GCCCTAGA | -0.145 |
| CTTTGACA | -0.0366 |
| CAGTGAGA | -0.253 |
| AATTCAAC | -0.00632 |
| ACCTCTAA | -0.0251 |
| AATGAGAC | -0.181 |
| CGCATGGC | 0.169 |
| GATAATAA | -0.0671 |
| AGAAAGCA | -0.136 |
| GGATAGAC | 0.0764 |
| AGAAGTAT | -0.0766 |
| CGACGTAA | 0.0968 |
| AGGGCCAG | -0.324 |
| ATTGAGGG | -0.137 |
| AGCCACAT | -0.093 |
| CAACAGTA | -0.153 |
| ATGTAGGA | -0.192 |
| AAGCGTAA | 0.173 |

Sample 2 — technique: aptamer microarray, sandwich; molecule type: DNA with 2'F-ANA; sample: in vitro; tested at: 200 nM; added: Cy3 exosite-II aptamer, 400 nM; direction: higher = stronger binding; sequence: GGTTGGTGTGGTTGG
Target: Prothrombin, mature alpha-thrombin (F2, Homo sapiens, UniProt P00734)
Setting: whole 15-mer aptamer, many near background
| Modification | mean fluorescence intensity [a.u.] |
| --- | --- |
| 2'F-ANA at 2 4 9 11 | 264 |
| 2'F-ANA at 1 2 3 4 6 8 10 14 15 | 49.1 |
| 2'F-ANA at 1 2 3 5 10 14 | 47.6 |
| 2'F-ANA at 1 2 3 4 5 6 7 9 11 12 13 15 | 68.3 |
| 2'F-ANA at 2 5 6 7 12 14 | 47 |
| 2'F-ANA at 1 5 7 8 11 14 | 45.3 |
| 2'F-ANA at 3 4 6 8 11 12 | 899 |
| 2'F-ANA at 1 3 5 6 7 9 10 11 15 | 94.2 |
| 2'F-ANA at 1 2 6 8 9 10 11 13 14 | 77.4 |
| 2'F-ANA at 1 3 4 6 9 11 14 | 63.7 |
| 2'F-ANA at 3 4 6 7 8 9 10 12 13 | 307 |
| 2'F-ANA at 1 4 7 10 14 | 66.3 |
| 2'F-ANA at 3 4 8 13 15 | 634 |
| 2'F-ANA at 1 2 6 10 12 13 14 15 | 48.5 |
| 2'F-ANA at 2 4 5 10 14 15 | 53.2 |
| 2'F-ANA at 1 4 5 6 7 8 10 14 | 51 |
| 2'F-ANA at 1 6 7 8 9 10 12 13 14 | 53.5 |
| 2'F-ANA at 2 3 7 10 11 12 13 14 15 | 255 |
| 2'F-ANA at 3 5 7 10 13 | 56.1 |
| 2'F-ANA at 1 2 3 5 6 8 9 11 13 15 | 111 |
| 2'F-ANA at 4 7 9 10 12 13 14 15 | 73.3 |
| 2'F-ANA at 1 3 5 7 9 12 13 15 | 81 |
| 2'F-ANA at 1 4 11 14 | 47.3 |
| 2'F-ANA at 1 3 5 8 9 12 14 | 47.2 |
| 2'F-ANA at 2 3 4 5 10 13 | 50.4 |

Sample 3 — technique: RNA Bind-n-Seq; molecule type: RNA; sample: in vitro; tested at: 365 nM; baseline: no-protein control; direction: higher = stronger binding
Target: RNA binding protein fox-1 homolog 2, RRM domain, GST-SBP tag (RBFOX2, Homo sapiens, UniProt O43251-10, residues 100-194)
Setting: natural RNA segment, single round, ends assumed
Residues (chain): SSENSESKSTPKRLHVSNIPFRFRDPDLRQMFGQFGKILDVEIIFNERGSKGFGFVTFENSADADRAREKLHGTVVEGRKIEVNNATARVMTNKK
| Sequence | RBNS enrichment (R) |
| --- | --- |
| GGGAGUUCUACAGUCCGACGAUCGUGAUCACCAGGGGACCUAGGGAGAUCCCCUUCCCACCCUCUCUGUUGGCCUCAGAGUCACUCCUGCCCCCUCUCCCUGACUUGGUGCUCACAUGCACCUCACUAGGGUUUGGAAUUCUCGGGUGCCAA | 0.281 |
| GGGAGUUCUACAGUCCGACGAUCGUUUGCUGUUGCACACUGAUUGCUAAGGGUGCAUCCAUUCUAAGCAUUGAAUACUCCAUCCCCUUCCCGCCCAGUGAAUGGAAUGAGAAAAGCCUUCUUCCUUUGCUUCAUGGAAUUCUCGGGUGCCAA | 1.39 |
| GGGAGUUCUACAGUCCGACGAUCUCUUAAUUUAAUCUUUGUACACCUUCCAUUUUUAAGUGCUUAAAUGAGUACUAUAUUGCAAUAAAAUGUAGUGAUAUAAUUAACCAGCCAUUAAAAAUUUACUUCUACAGUGGAAUUCUCGGGUGCCAA | 0.588 |
| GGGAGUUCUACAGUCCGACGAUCCUUCCUUCUUGUUAAUAAGGAGACCUGACGCACACAGCCAGUGGAUUCCCCUCCACCUCGGGAGGGGACAGGCUCCCACAUCCCAUCCCACCCUCCACACCCCAAAGAGAUGGAAUUCUCGGGUGCCAA | 0.614 |
| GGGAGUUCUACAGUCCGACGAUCAUUCCUGGAGUCAGUGGAUACAAGUAGUGCAGAAGGUUCACACUGCAAAUAGUGUUCUCAUCUCAAAGCAAACUAUCAUUCCAGAAGGAAAAGUGUGUCAGGGCAAGCAGUGGAAUUCUCGGGUGCCAA | 0.385 |
| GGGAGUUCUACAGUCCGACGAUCAUCAGCCACAAUUCCUUUUGGAACUGUUACACUCUGCCUCUGGUCCCUCCAACGUGGUCCUCUUCCUGGCUGGAGGUGCUGGAUUCUGACUGCCAUCUUGCUCCAUGGUGUGGAAUUCUCGGGUGCCAA | 0.325 |
| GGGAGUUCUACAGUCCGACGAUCUGUAUGUAGUACAUGUUAUAUGUGUAUAAUCUUUUUACUGAUAGACUGGAAACAUGUCAUCAUUUUUUAGAAAGAAAAAUAAACUUGGUUUUUCCAUAGAUUUCCUACCAUGGAAUUCUCGGGUGCCAA | 0.513 |
| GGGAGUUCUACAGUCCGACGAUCGCACUUCUCACAAUGUAACUGCUUUAGUCAUAUUAACCUGAAGUUGCAGUUUAGACACAUGUUUUUGGGGUGUCUUUCUGGUGUCCAAACUUUUGAGGCACUUUUCAAAUUGGAAUUCUCGGGUGCCAA | 0.282 |
| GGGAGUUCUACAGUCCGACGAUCUGCUGCCUUAGCUUCUAGAACGGAGCAAGCUUUUACGUACCUAGGUGACAUGUAGAAAAAUUUACAGUAAACUGAAAUGACCAUUUGUCAAUGCAUUGGUGCAUAGGAGUUGGAAUUCUCGGGUGCCAA | 0.599 |
| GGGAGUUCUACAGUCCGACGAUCAAUACCCACAACAACUGUAGUUUCUUACUUGGCCAAGAGAAUGCUUAUUUAAGUGUUAGACUUCCAUUCUGGCAAAAUCUUGCCUUAUCAGAAGACAUUGGAAAGAGGGAUGGAAUUCUCGGGUGCCAA | 0.261 |
| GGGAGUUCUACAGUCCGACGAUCCUCCUGUUUUGCAACCAGGAUGAGGACCCCUCCAUCUCCGUGGAUUACUGAGGGGGGCUCUUGCUUUAUGCGAUGCUGCCUUAUUUCCUUUAGGGUACUGUCCUGGUCAAUGGAAUUCUCGGGUGCCAA | 0.3 |
| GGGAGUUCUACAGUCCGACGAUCGGCUCUGAGUGUCAUCUAUCCAUUGCUGAGGUGGUCUCUAUAGCCUGCUCAAAGUCAAAUACAAACCCAAGAGAAGAAAUGUCUUCUCAAGACUUUGUGUCUAAUGUUUUUGGAAUUCUCGGGUGCCAA | 0.316 |

Sample 4 — technique: protein-binding microarray; molecule type: double-stranded DNA, one strand shown; sample: in vitro; tested at: 250 nM; setting: 60-bp whole probe; added: salmon DNA 0.4 mg/ml; baseline: random background probes; direction: higher = stronger binding; all sequences stand within: GCCTAGCAC … GTCTTGATTCGCTTGACGCTGCTG
Target: Interferon regulatory factor 5, full length, phosphomimetic (IRF5, Homo sapiens, UniProt Q13568-2, residues 1-514, K96S/S451D/S453D/S456D/S462D)
| Sequence | log fluorescence [z-score] |
| --- | --- |
| GACGGTCTCCTTTTCCTGTCGTGCTAG | 0.561 |
| TCAGGACTGGGTTTCGGTTAGTGCTAG | 8.27 |
| CTCCCTCAGGGTTTCAGATGGTGCTAG | 0.117 |
| TTAGAAGTGAGACTGGATTAGTGCTAG | -0.367 |
| TCATTTTCAATTTTTGCACTGTGCTAG | 2.38 |
| TCAGAGATTTTTCTCAAACTGTGCTAG | 0.168 |
| GACGGTTTCGACTATCGTGACGTGCTA | 6.4 |
| TTAGGACTGGACTTTCGTTTAGTGCTA | 5.92 |
| TCATTTTTAGAAATTTTTACTGTGCTA | 1.23 |
| GACGAGCTGGGGACTGGAGACGTGCTA | -0.551 |
| TCACATCTTGTTCCCAGACTGTGCTAG | 0.285 |
| GACGGACTGCACTTTCGGGACGTGCTA | 5.59 |
| CACGGTATCCTTATCCTGACGTGCTAG | -0.0438 |
| TTAGATATCAGGCTGGATTAGTGCTAG | 0.476 |
| CTAGGACTGCTTTTCCTTTAGTGCTAG | -0.0329 |
| GACGGACTGGACACTGGGCACGTGCTA | -0.561 |
| TTAGAACTGGGGTATCGATTAGTGCTA | 2.42 |
| GACGGTCTCGGAGTGGGGACGTGCTAG | -0.408 |
| GAGGCAAGGAGGGAGAACAGGTGCTAG | -0.606 |
| CAAGTGGAGCCCAGGCCAGAGTGCTAG | -0.889 |
